Experimental data from different studies.
A part holds a random share of what one study measured.
Sequence of UniProt Q9HCP0 (whole entry, looked up): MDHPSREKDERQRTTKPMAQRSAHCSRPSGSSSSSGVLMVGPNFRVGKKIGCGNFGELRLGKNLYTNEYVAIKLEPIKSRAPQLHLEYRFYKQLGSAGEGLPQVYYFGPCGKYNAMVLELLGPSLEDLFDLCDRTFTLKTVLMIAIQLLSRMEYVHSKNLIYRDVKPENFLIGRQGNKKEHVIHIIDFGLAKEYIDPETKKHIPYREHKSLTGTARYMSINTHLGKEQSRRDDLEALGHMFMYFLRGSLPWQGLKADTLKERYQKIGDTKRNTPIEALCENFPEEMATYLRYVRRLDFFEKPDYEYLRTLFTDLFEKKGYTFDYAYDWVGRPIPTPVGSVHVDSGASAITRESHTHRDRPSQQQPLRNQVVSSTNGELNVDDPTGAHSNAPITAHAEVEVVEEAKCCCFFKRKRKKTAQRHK
Sequence of UniProt Q9BZL6 (whole entry, looked up): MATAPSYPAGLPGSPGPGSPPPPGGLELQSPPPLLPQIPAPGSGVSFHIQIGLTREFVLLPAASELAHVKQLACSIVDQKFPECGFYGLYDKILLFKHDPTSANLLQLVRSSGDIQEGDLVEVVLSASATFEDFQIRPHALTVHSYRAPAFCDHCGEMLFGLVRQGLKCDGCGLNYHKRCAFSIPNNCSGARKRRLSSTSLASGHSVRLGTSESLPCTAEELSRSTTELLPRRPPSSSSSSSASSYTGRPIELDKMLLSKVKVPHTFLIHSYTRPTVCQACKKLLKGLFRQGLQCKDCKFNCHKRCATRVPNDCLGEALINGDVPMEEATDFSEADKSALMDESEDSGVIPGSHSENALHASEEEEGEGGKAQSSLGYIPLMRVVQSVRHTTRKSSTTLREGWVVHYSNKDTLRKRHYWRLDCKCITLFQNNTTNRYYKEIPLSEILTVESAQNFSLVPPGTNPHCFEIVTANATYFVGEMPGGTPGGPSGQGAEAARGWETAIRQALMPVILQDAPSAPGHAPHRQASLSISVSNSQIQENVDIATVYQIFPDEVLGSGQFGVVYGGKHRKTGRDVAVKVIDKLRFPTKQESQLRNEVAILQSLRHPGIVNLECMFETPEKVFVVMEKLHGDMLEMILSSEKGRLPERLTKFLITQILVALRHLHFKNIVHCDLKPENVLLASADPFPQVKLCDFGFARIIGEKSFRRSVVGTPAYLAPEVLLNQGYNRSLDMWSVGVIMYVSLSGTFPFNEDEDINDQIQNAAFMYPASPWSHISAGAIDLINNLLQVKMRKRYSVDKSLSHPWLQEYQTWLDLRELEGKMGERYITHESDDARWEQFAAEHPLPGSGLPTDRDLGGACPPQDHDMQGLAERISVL
Sequence of UniProt Q9BWU1 (whole entry, looked up): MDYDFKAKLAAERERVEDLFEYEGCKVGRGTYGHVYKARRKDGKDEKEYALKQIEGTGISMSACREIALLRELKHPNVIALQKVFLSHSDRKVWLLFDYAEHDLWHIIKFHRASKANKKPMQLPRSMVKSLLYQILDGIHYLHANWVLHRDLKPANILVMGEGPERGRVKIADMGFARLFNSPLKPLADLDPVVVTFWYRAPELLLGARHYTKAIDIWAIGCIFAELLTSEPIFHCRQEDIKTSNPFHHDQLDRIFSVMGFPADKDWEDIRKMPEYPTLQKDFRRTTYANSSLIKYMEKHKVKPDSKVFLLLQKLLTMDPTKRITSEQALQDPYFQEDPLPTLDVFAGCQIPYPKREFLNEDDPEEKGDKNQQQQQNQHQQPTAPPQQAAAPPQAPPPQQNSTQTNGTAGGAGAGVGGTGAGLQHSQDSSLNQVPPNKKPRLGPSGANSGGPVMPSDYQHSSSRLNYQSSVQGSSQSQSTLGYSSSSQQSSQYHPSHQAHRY
Sequence of UniProt P29322 (whole entry, looked up): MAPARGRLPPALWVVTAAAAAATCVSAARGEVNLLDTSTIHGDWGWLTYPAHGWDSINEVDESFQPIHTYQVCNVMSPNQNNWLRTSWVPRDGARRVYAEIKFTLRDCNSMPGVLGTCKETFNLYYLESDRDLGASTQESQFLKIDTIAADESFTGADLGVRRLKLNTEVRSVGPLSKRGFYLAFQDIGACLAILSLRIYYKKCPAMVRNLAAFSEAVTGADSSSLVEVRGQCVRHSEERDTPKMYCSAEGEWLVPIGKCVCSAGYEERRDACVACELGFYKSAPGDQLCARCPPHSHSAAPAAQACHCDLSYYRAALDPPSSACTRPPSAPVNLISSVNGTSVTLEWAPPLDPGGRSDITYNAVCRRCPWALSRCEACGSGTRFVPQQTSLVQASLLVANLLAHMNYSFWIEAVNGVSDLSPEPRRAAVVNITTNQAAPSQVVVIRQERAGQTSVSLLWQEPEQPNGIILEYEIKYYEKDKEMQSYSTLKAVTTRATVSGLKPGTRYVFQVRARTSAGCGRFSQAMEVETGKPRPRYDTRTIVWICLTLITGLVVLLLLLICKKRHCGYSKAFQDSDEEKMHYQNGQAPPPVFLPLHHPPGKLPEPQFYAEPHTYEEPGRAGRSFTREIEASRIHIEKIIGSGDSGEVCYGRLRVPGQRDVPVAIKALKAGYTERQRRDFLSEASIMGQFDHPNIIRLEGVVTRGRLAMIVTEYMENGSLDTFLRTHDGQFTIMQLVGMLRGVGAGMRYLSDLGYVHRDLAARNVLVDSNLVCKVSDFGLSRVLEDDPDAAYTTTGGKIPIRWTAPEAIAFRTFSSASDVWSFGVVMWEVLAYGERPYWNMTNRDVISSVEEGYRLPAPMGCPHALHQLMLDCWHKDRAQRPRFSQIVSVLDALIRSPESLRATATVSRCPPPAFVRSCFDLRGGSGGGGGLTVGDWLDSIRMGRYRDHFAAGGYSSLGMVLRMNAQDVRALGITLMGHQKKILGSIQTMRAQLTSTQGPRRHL
Sequence of UniProt Q96L34 (whole entry, looked up): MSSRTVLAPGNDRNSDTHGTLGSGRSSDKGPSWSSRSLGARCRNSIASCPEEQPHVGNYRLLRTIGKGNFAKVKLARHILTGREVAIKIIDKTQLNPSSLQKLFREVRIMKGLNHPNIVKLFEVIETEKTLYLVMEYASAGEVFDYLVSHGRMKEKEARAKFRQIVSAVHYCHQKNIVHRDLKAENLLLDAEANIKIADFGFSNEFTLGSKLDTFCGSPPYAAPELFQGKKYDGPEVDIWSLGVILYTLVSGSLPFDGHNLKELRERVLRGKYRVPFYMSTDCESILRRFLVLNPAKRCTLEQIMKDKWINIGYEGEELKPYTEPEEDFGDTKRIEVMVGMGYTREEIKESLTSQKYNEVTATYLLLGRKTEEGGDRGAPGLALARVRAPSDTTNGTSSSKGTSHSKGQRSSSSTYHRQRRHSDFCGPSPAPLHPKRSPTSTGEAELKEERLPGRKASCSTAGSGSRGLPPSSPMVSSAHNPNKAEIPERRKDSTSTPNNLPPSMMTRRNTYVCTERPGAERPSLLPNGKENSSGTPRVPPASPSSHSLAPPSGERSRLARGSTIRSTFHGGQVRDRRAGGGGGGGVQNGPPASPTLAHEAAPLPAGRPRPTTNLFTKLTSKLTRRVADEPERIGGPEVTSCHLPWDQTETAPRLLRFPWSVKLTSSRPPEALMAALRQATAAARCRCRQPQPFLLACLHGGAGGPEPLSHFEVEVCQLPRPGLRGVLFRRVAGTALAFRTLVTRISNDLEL
Sequence of UniProt P45985 (whole entry, looked up): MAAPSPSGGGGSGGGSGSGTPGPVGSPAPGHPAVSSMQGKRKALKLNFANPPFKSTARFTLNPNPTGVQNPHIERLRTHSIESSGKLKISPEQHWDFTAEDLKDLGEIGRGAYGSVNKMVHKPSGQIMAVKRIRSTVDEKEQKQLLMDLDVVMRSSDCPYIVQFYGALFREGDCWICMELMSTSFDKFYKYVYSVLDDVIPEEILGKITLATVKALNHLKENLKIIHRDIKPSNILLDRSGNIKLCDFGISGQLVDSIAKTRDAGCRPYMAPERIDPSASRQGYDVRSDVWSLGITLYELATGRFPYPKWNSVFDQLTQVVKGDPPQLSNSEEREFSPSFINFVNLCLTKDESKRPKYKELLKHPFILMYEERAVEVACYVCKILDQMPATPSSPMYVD
Sequence of UniProt O94806 (whole entry, looked up): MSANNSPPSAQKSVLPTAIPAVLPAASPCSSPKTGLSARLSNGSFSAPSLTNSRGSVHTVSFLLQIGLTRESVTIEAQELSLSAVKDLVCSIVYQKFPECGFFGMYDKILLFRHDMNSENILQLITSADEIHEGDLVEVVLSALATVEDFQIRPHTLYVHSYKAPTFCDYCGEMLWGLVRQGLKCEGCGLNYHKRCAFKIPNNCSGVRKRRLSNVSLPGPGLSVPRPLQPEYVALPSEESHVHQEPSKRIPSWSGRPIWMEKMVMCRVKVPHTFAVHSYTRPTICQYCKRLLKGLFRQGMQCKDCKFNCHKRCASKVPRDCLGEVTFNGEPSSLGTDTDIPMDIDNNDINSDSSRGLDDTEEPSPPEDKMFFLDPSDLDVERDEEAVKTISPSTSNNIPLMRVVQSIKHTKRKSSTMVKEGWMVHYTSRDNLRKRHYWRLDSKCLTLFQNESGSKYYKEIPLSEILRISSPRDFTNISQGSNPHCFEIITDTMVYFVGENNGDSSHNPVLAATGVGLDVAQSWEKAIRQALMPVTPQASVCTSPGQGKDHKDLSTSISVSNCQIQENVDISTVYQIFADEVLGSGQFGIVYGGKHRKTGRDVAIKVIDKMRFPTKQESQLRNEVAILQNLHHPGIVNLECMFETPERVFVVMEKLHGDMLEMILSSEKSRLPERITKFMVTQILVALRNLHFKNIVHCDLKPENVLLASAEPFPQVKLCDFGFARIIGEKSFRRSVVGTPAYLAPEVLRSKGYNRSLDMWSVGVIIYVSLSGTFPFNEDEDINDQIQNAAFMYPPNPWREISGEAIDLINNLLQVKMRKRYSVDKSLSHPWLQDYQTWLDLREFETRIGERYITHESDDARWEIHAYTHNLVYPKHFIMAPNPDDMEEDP

Sample 1 — species: human; matrix: microsomes or S9; concentration: 2 µM; time: 0.5 h
SMILES	remaining compound
COc1ccc(CN2C(=O)C3=C(C#N)c4ccccc4Oc4cccc2c43)cc1	97.1%
O=S(=O)(/N=C(\NC1CCCCC1)c1ccccc1)c1ccccc1	> 99%
COc1ccc(/C=C/c2nc(S(=O)(=O)c3ccccc3)c(N(C)C)o2)cc1	5.85%
Cc1nc(N(C)CC(O)CN2CCN(C)CC2)nc(C)c1CC(C)C (stereo not shown)	83.8%
c1ccc(OCC2CN(c3ccc4nnc(-c5ccsc5)n4n3)CCO2)cc1 (stereo not shown)	49.8%
COc1cc(=O)n2c(c1C(=O)NCc1ccccc1Cl)CCCC2	40.7%

Sample 2 — organism: Sarcocystis neurona; read-out: parasite growth; concentration: 10 µM
SMILES	inhibition [%]
COc1ccc([C@@H]2Sc3ccccc3N(CCN(C)C)C(=O)[C@@H]2OC(C)=O)cc1	2.1
COc1cccc2c1C(=O)c1c(O)c3c(c(O)c1C2=O)C[C@@](O)(C(=O)CO)C[C@@H]3O[C@H]1C[C@H](N)[C@H](O)[C@H](C)O1	54.4
CC(C)NCC(O)COc1cccc2[nH]ccc12 (stereo not shown)	-31.5
COc1cc(-c2ccc(=O)[nH]n2)ccc1OC(F)F	-46.5
CN(CCO)CC(O)Cn1cnc2c1c(=O)n(C)c(=O)n2C.O=C(O)c1cccnc1 (stereo not shown)	-19.4
Cc1onc(-c2ccccc2)c1C(=O)N[C@@H]1C(=O)N2[C@@H]1SC(C)(C)[C@@H]2C(=O)O	-22.9
Nc1ccc2cn[nH]c2c1	-26.2
CC(C)(C)NCC(O)COc1cccc2c1CC(O)C(O)C2 (stereo not shown)	-26.1

Sample 3 — concentration: 1 µM
Compound: CC1=C(C#N)[C@@H](c2ccc3[nH]nc(C)c3c2)C(C#N)=C(c2ccc(Cl)cc2)N1
target	assay	remaining binding
EGFR (Homo sapiens, UniProt P00533, T790M)	cell-free assay, competition with immobilised ligand	100%
MAP2K4 (Homo sapiens, UniProt P45985)	cell-free assay, competition with immobilised ligand	71.5%
PRKD3 (Homo sapiens, UniProt O94806)	cell-free assay, competition with immobilised ligand	100%
CDC42BPB (Homo sapiens, UniProt Q9Y5S2)	cell-free assay, competition with immobilised ligand	100%
Tyrosine-protein kinase ABL1, non-phosphorylated (ABL1, Homo sapiens, UniProt P00519, F317L)	cell-free assay, competition with immobilised ligand	100%
MARK4 (Homo sapiens, UniProt Q96L34)	cell-free assay, competition with immobilised ligand	100%
CDK19 (Homo sapiens, UniProt Q9BWU1)	competition binding	66.8%
STK32C (Homo sapiens, UniProt Q86UX6)	cell-free assay, competition with immobilised ligand	91.2%
MYLK4 (Homo sapiens, UniProt Q86YV6)	cell-free assay, competition with immobilised ligand	100%
BMPR1B (Homo sapiens, UniProt O00238)	cell-free assay, competition with immobilised ligand	100%

Sample 4 — read-out: enzyme activity; action: inhibitor; concentration: 0.5 µM; reference: control
Structure (SMILES): CO[C@H]1C[C@@H]2CC[C@@H](C)[C@@](O)(O2)C(=O)C(=O)N2CCCC[C@H]2C(=O)O[C@H]([C@H](C)C[C@@H]2CC[C@@H](O)[C@H](OC)C2)CC(=O)[C@H](C)/C=C(\C)[C@@H](O)[C@@H](OC)C(=O)[C@H](C)C[C@H](C)/C=C/C=C/C=C/1C
target	remaining activity
PRKD2 (Homo sapiens, UniProt Q9BZL6)	99%
EPHA8 (Homo sapiens, UniProt P29322)	92.7%
TYK2 (Homo sapiens, UniProt P29597)	107%
CSNK1G1 (Homo sapiens, UniProt Q9HCP0)	96%
DAPK3 (Homo sapiens, UniProt O43293)	104%
MKNK1 (Homo sapiens, UniProt Q9BUB5)	101%
STK24 (Homo sapiens, UniProt Q9Y6E0)	93.5%

Repeated from above (sample 2):
SMILES	inhibition [%]
COc1cccc2c1C(=O)c1c(O)c3c(c(O)c1C2=O)C[C@@](O)(C(=O)CO)C[C@@H]3O[C@H]1C[C@H](N)[C@H](O)[C@H](C)O1	54.4
CC(C)NCC(O)COc1cccc2[nH]ccc12 (stereo not shown)	-31.5
COc1cc(-c2ccc(=O)[nH]n2)ccc1OC(F)F	-46.5
CN(CCO)CC(O)Cn1cnc2c1c(=O)n(C)c(=O)n2C.O=C(O)c1cccnc1 (stereo not shown)	-19.4
Cc1onc(-c2ccccc2)c1C(=O)N[C@@H]1C(=O)N2[C@@H]1SC(C)(C)[C@@H]2C(=O)O	-22.9
